Results gathered from unrelated publications.
Numbered parts are unrelated; each lists some results of a single study. Positions count from the first letter of the parent shown.

Sample 1
Target: UBE2S UBC core domain (UniProt Q16763)
Method: yeast two-hybrid
Sample: yeast
Setting: mostly zero background
Relative to: not given
Reading: higher = stronger interaction
B1: RNF208 RING domain (UniProt Q9H0X6); chain SSAAAGEPLECPTCGHSYNVTQRRPRVLSCLHSVCEQCLQILYESCPKYKFISCPTCRRETVLFTDYG
B2: MKRN1 RING domain (UniProt Q9UHC7); chain FAVQRSKDMVCGICMEVVYEKANPSERRFGILSNCNHTYCLKCIRKWRSAKQFESKIIKSCPECRITSNFVIPSE
B3: TRIM43 RING domain (UniProt Q96BQ3); chain FSHAFQKELTCVICLNYLVDPVTICCGHSFCRPCLCLSWEEAQSPANCPACREPSPKMDFKT
B4: TRIM40 RING domain (UniProt Q6P9F5); chain LQKDNQEEGVCPICQESLKEAVSTNCGHLFCRVCLTQHVEKASASGVFCCPLCRKPCSEEVLG
B5: SH3RF2 RING domain (UniProt Q8TEC5); chain DDLTLLDLLECPVCFEKLDVTAKVLPCQHTFCKPCLQRVFKAHKELRCPECRTPVFSNIEAL
B6: TRIM5 RING domain (UniProt Q9C035); chain LREVKLSPEGQKVDHCARHGEKLLLFCQEDGKVICWLCERSQEHRGHHTFLTEEVAREYQVKL
B7: VPS41 RING domain (UniProt P49754); chain KGVLVDEENICESCLSPILPSDAAKPFSVVVFHCRHMFHKECLPMPSMNSAAQFCNICSAKNRGPGSAI
Target sequence (chain): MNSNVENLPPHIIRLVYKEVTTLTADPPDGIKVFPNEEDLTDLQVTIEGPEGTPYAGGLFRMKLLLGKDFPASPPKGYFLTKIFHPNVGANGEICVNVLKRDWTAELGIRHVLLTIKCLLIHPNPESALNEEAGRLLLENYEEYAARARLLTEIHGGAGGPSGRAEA
Sequence | lacZ reporter activity
B1 (RNF208 RING domain) | 0
DHGAVGQEMCCPICCSEYVKGEVATELPCHHYFHKPCVSIWLQKSGTCPVCRCMFPPPL (PJA1 RING domain (UniProt Q8NG27)) | 0
VEPSEENSKDCVVCQNGTVNWVLLPCRHTCLCDGCVKYFQQCPMCRQFVQESFALC (CGRRF1 RING domain (UniProt Q99675)) | 0
B2 (MKRN1 RING domain) | 0
B3 (TRIM43 RING domain) | 0
GAAPGPEAAECLVCSELALLVLFSPCQHRTVCEECARRMKKCIRCQVVVSKKLRPD (MIB2 RING domain (UniProt Q96AX9)) | 0
PAELEVQASECVVCLEREAQMIFLNCGHVCCCQQCCQPLRTCPLCRQDIAQRLRIY (LRSAM1 RING domain (UniProt Q6UWE0)) | 0
B4 (TRIM40 RING domain) | 0
B5 (SH3RF2 RING domain) | 0
B6 (TRIM5 RING domain) | 0
MPIRALCTICSDFFDHSRDVAAIHCGHTFHLQCLIQWFETAPSRTCPQCRIQVGKRTIIN (TRAIP RING domain (UniProt Q9BWF2)) | 0
B7 (VPS41 RING domain) | 0

Sample 2
Target: Prothrombin, mature alpha-thrombin (F2, Homo sapiens, UniProt P00734)
Method: aptamer microarray, sandwich
Molecule type: DNA with 2'F-ANA
Sample: in vitro
Concentration: 200 nM
Setting: whole 15-mer aptamer, many near background
Together with: Cy3 exosite-II aptamer, 400 nM
Reading: higher = stronger binding
Sequence: GGTTGGTGTGGTTGG
Modification | mean fluorescence intensity
2'F-ANA at 1 2 3 5 8 9 10 14 | 61.2 a.u.
2'F-ANA at 2 3 5 6 7 10 12 | 57.3 a.u.
2'F-ANA at 1 2 3 4 5 6 7 9 11 14 | 49.9 a.u.
2'F-ANA at 2 3 6 7 9 11 13 14 15 | 250 a.u.
2'F-ANA at 1 2 5 8 9 11 12 14 | 51.6 a.u.
2'F-ANA at 1 3 4 7 11 12 | 354 a.u.
2'F-ANA at 1 2 3 4 5 8 11 12 14 15 | 49.4 a.u.
2'F-ANA at 1 3 5 7 8 10 12 | 48.9 a.u.
2'F-ANA at 6 7 8 9 10 13 15 | 135 a.u.
2'F-ANA at 5 6 11 12 14 15 | 56.7 a.u.
2'F-ANA at 2 3 5 6 7 8 9 12 14 15 | 58.3 a.u.
2'F-ANA at 1 2 4 6 7 8 9 10 12 14 | 56 a.u.
2'F-ANA at 1 2 5 6 7 8 9 10 13 | 50.4 a.u.
2'F-ANA at 2 5 8 10 11 12 13 14 15 | 46.9 a.u.
2'F-ANA at 2 4 5 7 10 12 13 14 | 50.3 a.u.
2'F-ANA at 5 6 9 10 11 13 | 45.6 a.u.
2'F-ANA at 1 3 5 7 8 10 11 12 13 | 48.8 a.u.
2'F-ANA at 2 4 5 8 | 79 a.u.
2'F-ANA at 5 7 8 12 13 14 | 49 a.u.
2'F-ANA at 2 3 8 10 15 | 375 a.u.
2'F-ANA at 1 2 5 7 8 9 11 12 15 | 95.2 a.u.
2'F-ANA at 3 4 6 9 11 12 14 15 | 245 a.u.
2'F-ANA at 2 3 4 6 9 11 12 13 | 510 a.u.
2'F-ANA at 3 4 5 7 8 9 10 11 13 14 15 | 94.5 a.u.
2'F-ANA at 2 3 6 13 | 540 a.u.

Sample 3
Target: CCNB3, cyclin fold, Cln2 fusion (human)
Method: yeast growth competition, sequencing
Sample: yeast
Setting: strong parent motif
Relative to: not given
Reading: higher = stronger binding
Starting sequence: RBL2 docking peptide (human); STTRRRLFVENDS; partner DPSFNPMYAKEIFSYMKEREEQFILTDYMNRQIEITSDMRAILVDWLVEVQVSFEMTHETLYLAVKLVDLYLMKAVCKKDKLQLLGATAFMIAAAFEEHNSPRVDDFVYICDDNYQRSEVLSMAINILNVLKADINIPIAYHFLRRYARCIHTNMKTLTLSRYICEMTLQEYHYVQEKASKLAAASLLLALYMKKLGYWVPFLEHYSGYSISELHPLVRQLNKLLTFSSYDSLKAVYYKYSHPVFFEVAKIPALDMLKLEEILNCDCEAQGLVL
Substitution | normalised enrichment score
L7F | 0.417
S1P | 0.768
N11W | 0.616
L7T | -0.205
L7Q | -0.0693
R6C | 0.51
S1I | 0.529
R5Q | 0.587
L7E | 0.248
V9K | 0.692
E10G | 0.4
T2P | 1.08
R4K | 0.569
F8G | 0.0676
E10W | -0.0583
T2V | 0.648
V9A | 1.07
F8P | 0.513
D12G | 0.679

Sample 4
Target: ABI1, truncated, D143A, DHFR fusion (Arabidopsis thaliana)
Method: DHFR PCA, deep sequencing
Sample: yeast
Setting: methotrexate growth selection, single substitutions
Together with: (+)-ABA 17 µM
Relative to: wild-type fitted maximum
Reading: higher = stronger binding
Starting sequence: PYL1, truncated, DHFR fusion (Arabidopsis thaliana); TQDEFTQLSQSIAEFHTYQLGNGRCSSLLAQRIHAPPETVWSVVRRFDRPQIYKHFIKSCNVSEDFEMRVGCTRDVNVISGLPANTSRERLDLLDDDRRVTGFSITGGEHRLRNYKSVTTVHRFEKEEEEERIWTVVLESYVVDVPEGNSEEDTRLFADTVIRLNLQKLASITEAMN
Substitution | relative binding score [%]
Q2A | 88.1
E109I | 67
Y115N | 8.43
V145F | 9.64
G107Q | 32.5
A35N | -3.23
T135P | 15
S9K | 81.2
A170W | 19.1
G102Q | 15.5
S104C | 38.2
V118A | 31.3
T1V | 89.1
E139L | 40.8
S150F | 16.5

Sample 5
Target: Sal-like protein 4, full length isoform A (SALL4, Homo sapiens, UniProt Q9UJQ4, residues 1-1053)
Chain of UniProt Q9UJQ4 (whole entry, looked up): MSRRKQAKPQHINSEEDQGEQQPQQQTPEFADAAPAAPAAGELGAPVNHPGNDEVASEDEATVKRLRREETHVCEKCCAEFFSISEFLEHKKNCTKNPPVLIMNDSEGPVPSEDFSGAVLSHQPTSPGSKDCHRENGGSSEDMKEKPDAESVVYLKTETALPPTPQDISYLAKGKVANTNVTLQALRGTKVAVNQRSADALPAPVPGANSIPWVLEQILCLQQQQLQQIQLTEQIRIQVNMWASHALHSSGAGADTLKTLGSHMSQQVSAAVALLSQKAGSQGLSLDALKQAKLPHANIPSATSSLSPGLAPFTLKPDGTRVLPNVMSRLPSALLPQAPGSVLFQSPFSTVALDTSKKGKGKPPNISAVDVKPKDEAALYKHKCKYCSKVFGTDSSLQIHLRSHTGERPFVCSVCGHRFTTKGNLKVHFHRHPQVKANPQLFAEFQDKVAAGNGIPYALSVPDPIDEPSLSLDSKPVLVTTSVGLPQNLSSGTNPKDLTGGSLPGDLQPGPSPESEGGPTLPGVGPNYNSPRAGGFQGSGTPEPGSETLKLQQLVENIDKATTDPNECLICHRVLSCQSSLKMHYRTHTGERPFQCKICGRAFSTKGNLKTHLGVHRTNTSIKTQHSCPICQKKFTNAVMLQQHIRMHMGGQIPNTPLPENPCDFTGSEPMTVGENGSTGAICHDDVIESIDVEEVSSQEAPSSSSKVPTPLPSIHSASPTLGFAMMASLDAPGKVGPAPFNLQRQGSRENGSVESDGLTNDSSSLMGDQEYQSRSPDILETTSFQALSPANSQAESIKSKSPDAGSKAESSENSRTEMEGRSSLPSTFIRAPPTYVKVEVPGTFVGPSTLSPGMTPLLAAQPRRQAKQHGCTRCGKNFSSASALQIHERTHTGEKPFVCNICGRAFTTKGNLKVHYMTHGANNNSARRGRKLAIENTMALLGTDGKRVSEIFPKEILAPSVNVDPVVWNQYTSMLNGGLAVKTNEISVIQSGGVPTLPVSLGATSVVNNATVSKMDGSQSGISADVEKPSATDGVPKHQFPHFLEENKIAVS
Method: universal PBM
Molecule type: double-stranded DNA, one strand shown
Sample: in vitro
Concentration: 600 nM
Setting: 8-mer, flanks averaged, mean of replicates
Reading: higher = stronger binding
Sequence | E-score
ATTCGGGG | -0.127
CCCGGCAC | -0.399
AAATGCTG | 0.0951
GTACATTA | 0.282
AACGCACG | 0.0611
ATTATTTG | 0.369
CTCCTGTC | -0.0332
CTGGTGTA | -0.158
CTCTACAG | 0.00931
GCTCTAAC | -0.0974
AGTCTATC | -0.0105
GCTGAGCA | -0.128
CAGCGATG | -0.156
GTGAGGGA | -0.158
CTGCCCCC | -0.281
ACCCGAAC | -0.0935
AAGCTTGT | 0.104
GCCCGCCA | -0.298
ATAGTGTG | 0.0986
GGCACGAC | -0.128
CATCAGAG | -0.00545
